Assay results of several laboratories.
Each numbered part is a random draw from the data of one study; scales do not carry over between parts.

Series 1 — method: protein-binding microarray; molecule type: double-stranded DNA, one strand shown; matrix: in vitro; concentration: 2200 nM top; setting: 60-bp whole probe; together with: salmon DNA 0.4 mg/ml; relative to: random background probes; reading: higher = stronger binding; all sequences stand within: GCCTAGCAC … GTCTTGATTCGCTTGACGCTGCTG
Target: Interferon regulatory factor 7, full length, phosphomimetic (IRF7, Homo sapiens, UniProt Q92985, residues 1-503, S471D/S472D/S475D/S476D/S477D/S483D/S484D/S487D)
Residues (chain): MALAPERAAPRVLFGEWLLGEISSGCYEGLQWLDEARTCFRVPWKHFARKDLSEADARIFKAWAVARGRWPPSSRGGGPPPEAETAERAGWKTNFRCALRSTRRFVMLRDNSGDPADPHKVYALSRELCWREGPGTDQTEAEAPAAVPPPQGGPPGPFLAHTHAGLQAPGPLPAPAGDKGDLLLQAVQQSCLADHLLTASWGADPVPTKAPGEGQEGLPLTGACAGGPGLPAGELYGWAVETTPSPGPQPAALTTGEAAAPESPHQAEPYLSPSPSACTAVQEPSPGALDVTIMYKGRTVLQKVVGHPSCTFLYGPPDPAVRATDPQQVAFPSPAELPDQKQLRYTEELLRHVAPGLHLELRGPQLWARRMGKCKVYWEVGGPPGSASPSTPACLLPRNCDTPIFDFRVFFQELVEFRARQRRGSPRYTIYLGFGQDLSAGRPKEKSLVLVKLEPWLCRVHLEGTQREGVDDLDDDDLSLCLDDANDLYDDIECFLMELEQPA
Sequence | fitted relative affinity [z-score]
CATAGAGATGCCTGTCCTCTGTGCTAG | 0.46
TCAGCTCTGATGTTGGGACTGTGCTAG | -0.0699
GACGGTATGGGTATCGGGACGTGCTAG | -0.483
GACGTTCTCAGTCTCGAGACGTGCTAG | 0.632
TTTTGTTTTTCATTATTGTCGTGCTAG | 6.36
GACGGTCTCCTTTTCCTAACGTGCTAG | 1.52
ATTTTAATCACATATACACTGGTGCTA | 0.654
CACGGTTTCCTACTGCTGACGTGCTAG | 2.41
TTAGACATCGGGACTGGATTAGTGCTA | -0.388
TTAGATCTCAATTTCGATTAGTGCTAG | 2.48
TTAGGAATGGACACTGGGTTAGTGCTA | -0.563
GACGGTCTCCTACTGCGGACGTGCTAG | 0.223
TTAGATTTAAGTTTCGATTAGTGCTAG | 5
GACGATCTCAGTGTCGAGACGTGCTAG | 0.0999
GACGGTTCCCTATTCCTGACGTGCTAG | 2.19
TTAGGACTGGACTATCAGTTAGTGCTA | -0.822
TTAGGTTTCGGCCTGGGTTAGTGCTAG | 2.96
TCAGATCACCGATTTCCTACTGTGCTA | 1.58
TGTGTCCTGGCTTTGACTCTGTGCTAG | 1.05
TTAGGTATCGGACTGGGGTAGTGCTAG | -0.149
TTAGGACTGGGGTATCGGTCAGTGCTA | -0.619
GTCGGTCTCGGTTTCGGGACGTGCTAG | 4.46
TTAGGTTTCTTTATCCTTTAGTGCTAG | 1.67
ACAGGAGTGTTTCTCAGTTTGTGCTAG | 0.586

Series 2 — method: RNA Bind-n-Seq; molecule type: RNA; matrix: in vitro; concentration: 365 nM; relative to: no-protein control; reading: higher = stronger binding
Target: RNA binding protein fox-1 homolog 2, RRM domain, GST-SBP tag (RBFOX2, Homo sapiens, UniProt O43251-10, residues 100-194)
Setting: natural RNA segment, single round, ends assumed
All sequences stand within: GGGAGUUCUACAGUCCGACGAUC … UGGAAUUCUCGGGUGCCAA
Residues (chain): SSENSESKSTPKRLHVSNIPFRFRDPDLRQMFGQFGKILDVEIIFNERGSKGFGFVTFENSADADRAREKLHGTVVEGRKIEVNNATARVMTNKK
Sequence | RBNS enrichment (R)
GUUAGGCUGUUCUCCUGAGCUGCAGGUGCCCAGGUCUGACUCUCCUUCUCUGCUUAUCCCCAGGCAGCAGAUGCUGAGCUUCCCCCACCUCCUGCAGACAGUGCUGCACA | 0.571
GCCCUUUGAGACAAAAGAAACAGGCCCAGCACGAGUGGAAGUGGGUGUCUGUGUUUCUGUUUGCACUGUUUCUGUGACAGCCACCCAGGCAAAAUCAUGAAAUACACUCG | 0.792
AUUUAUAAUUCUACAGUACCUAUUAAUGCUGUACUUCCAGGAUGCUCAUGCCCAUUUUAUUCUUAUAUGUAUGCUACAUACAGUAUGUUGGUUUCCCGAAUAGUGUGCAU | 0.618
CUCUGCAGUUCAUCUCAUUUCAAAUGUUUAUGGAAGAAGCACUUCAUUGAAAGUAGUGCUGUAAAUAUUCUGCCAUAGGAAUACUGUCUACAUGCUUUCUCAUUCAAGAA | 0.33
ACCUCAGCCUCCUGAGUUGGGUCCUACAGGCGCACACGACCACGCCCAGCUAAUUUUUUGUAUUUUUAGUAGAGUUGGGGUUUCACCAUGUUAGCCAGGAUGGUCUCGAU | 0.495
UUAAAUCAUGUGAUUUAUAGUUUUUAAGUUGGCAUAAUUCAACUUAUGGUAUAACUGGGUCCCUCAACAGUAACCUGGGCUAAAAUAGGUCUUAUGUGGUUCAACUCCCA | 0.279
ACCUCAAGGCUUUUUUCUUCUUAUUGUAAAUACACUUUACGUGAAUACAGUCUAAGUGAAGAAAAUAAAUAAAAGGAAGAGGUUUAUAACUUGCUCUAUAUCUGUACAGA | 0.328
AGUACUCCCACAGGCCUGACUAACCGCCACAGAUCUCUCUUUCUUUCUCUCUGGUGACUUUUUGCUUUUGUGAUAUGGCAGCGGUGUGACAGUCCCAGGAGAGAAGUCAU | 0.486
CCCUGACUCUGGCUAAAAUUAUCUAAUUUCCAGAUGCUUUUGUAGAUGACUGAAGUAUUUGUGAGCCACAUAUUGGGAGUUCUAGAUUUGAGUGAAUGGCAGGAAAGGGC | 0.52
UCAUAUUGAAUGUAUUAACAGAUAGCAGUGCAAAAGCAUUCUUCCCAAGAGAAGAGUGUACCAUGCACGUCUGCACCCCAGGCCCUUCCUGAGUCUUCAGGUGCACACAG | 0.378
ACCCCAGUUCUAGGGGGCAGAAACAGGACAUUUACAUCUAGUAGGGGCUGCAAGAGCAAAGAGGAAUAUCGUCUAAAGAUUUCUCUAUAUAUUUAAAACCCACAACUAAA | 0.43
GAUUACCUGAUAUCUAGAUAUAUAAUUAUAUGUGUGAAUAAAUGUGACAGAACUUGAUUAUUUCAUCUUUUCCCACAAUUGUGCUUUAUUGGAUGUGAUGUUUCUUGCAU | 0.632

Series 3 — method: protein binding microarray; molecule type: double-stranded DNA, one strand shown; matrix: in vitro; concentration: not given; relative to: not given; reading: higher = stronger binding
Target: Histone acetyltransferase KAT6A, winged helix 1, GST fusion (KAT6A, Homo sapiens, UniProt Q92794, residues 1-85)
Setting: 8-mer, flanks averaged, mean of 2 arrays, mostly near background
Target sequence (chain): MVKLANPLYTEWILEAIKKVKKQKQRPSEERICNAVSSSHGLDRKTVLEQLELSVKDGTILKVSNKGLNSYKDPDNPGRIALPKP
Sequence | E-score
GGAGCCAC | -0.175
CTCTCTGA | -0.19
ACATATTA | -0.0401
CTGGGCGA | 0.0543
ATGATAAG | -0.213
AACGTTAT | -0.0769
AGCTGACG | 0.037
TAGAAACA | -0.119
ATCCGGCG | 0.374
CCCAAGAA | -0.179
GATAATAA | -0.0332
CACCGGTA | 0.195
ACTGGTGG | -0.247
AACATTGC | 0.0107
CTGTTTAA | 0.0452
GGCCTCTA | -0.0897
CAGATCCC | 0.0357
ACAAAGGC | -0.0488
AGACTCAA | -0.168
AGGCCCAA | -0.0409
GCCCATAC | -0.056
AATACGTC | -0.0158
ATGGAGTC | -0.142
CCTAATAC | -0.0557

Series 4 — method: RNAcompete; molecule type: RNA; matrix: in vitro; concentration: 20 nM; setting: 7-mer, probes averaged, single round; relative to: mean of 7-mers; reading: higher = stronger binding
Target: PABPC1L2, full length, GST fusion (mouse, UniProt A0ABA7IW68)
Residues (chain): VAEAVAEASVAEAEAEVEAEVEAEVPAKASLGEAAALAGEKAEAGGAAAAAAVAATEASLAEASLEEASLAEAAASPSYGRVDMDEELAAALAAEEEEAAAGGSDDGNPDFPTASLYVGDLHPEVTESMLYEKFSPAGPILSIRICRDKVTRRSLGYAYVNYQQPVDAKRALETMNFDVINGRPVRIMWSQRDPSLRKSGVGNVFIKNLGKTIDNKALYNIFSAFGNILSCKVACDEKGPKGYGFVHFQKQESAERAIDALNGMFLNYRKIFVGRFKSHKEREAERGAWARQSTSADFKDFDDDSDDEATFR
Sequence | 7-mer Z-score
AGCACAG | -0.0645
ACACAGG | 0.247
CUGGGAC | 0.0352
AGUAUGG | 0.0388
UUUGUAA | -0.112
UGUAAAU | 0.445
AGGUUGA | 0.0315
CAAGAUC | -0.0591
UCUUUAU | -0.0446
UUAUUUG | -0.171
GUUUUUU | -0.394
UUCAUCG | -0.458
AGGAUUA | 0.0279
UAGUCAC | -0.267
AGGUCAU | -0.0899
AUUUAGC | 0.273
CGGUCCU | -0.215
UGUUUUU | -0.378
CACCAUU | -0.229
UUGAGGU | -0.0591
AGCCCCU | -0.318
GCAGUUG | -0.173
AGCGCGG | 0.017
CUAUCCC | -0.373
GCACCCU | -0.306
